Assay results of several laboratories.
Parts stem from different laboratories: compare values within a part only. Positions count from the first letter of the parent shown.

Study 1
Target: Interferon regulatory factor 5, full length, phosphomimetic (IRF5, Homo sapiens, UniProt Q13568-2, residues 1-514, K96S/S451D/S453D/S456D/S462D)
Method: protein-binding microarray
Form: double-stranded DNA, one strand shown
Sample: in vitro
Tested at: 250 nM
Setting: 60-bp whole probe
Together with: salmon DNA 0.4 mg/ml
Reference: random background probes
Direction: higher = stronger binding
All sequences stand within: GCCTAGCAC … GTCTTGATTCGCTTGACGCTGCTG
The log fluorescence of `AGCAGGGCTGATGCTCCCCTGTGCTAG` is reported as -1.16 z-score.
For `GACGGTTTGGACTTTCGGGACGTGCTA`, the log fluorescence was 3.97 z-score.
`GACGAGATCAGTCTCGAGACGTGCTAG` has a log fluorescence of 0.101 z-score.
`GACGGACTGGGGTTTCGAGACGTGCTA` has a log fluorescence of 0.88 z-score.
`GGAGTTTCCACCCTTCTCTCGTGCTAG` gave a log fluorescence of 0.515 z-score.
`TCAGATATGCGGTAAGGGACTGTGCTA` has a log fluorescence of -0.0996 z-score.
For `TTAGGTTTCGGACTCGGTTAGTGCTAG`, the log fluorescence was 5.21 z-score.
With `GACGGTTTCCTTCTACTGACGTGCTAG` the log fluorescence was 1.09 z-score.
`TCATCTCTGGGCTGTGGGACTGTGCTA` gave a log fluorescence of -0.0229 z-score.
With `TTATATTCCAGTTTCGATTAGTGCTAG` the log fluorescence was 9.95 z-score.
For `TTAGATTTCAGTTCCGATAAGTGCTAG`, the log fluorescence was 2.79 z-score.
`TCAACTCTAATATTGAGACTGTGCTAG` gave a log fluorescence of 0.296 z-score.
`GGCGGACTGGACTATCGGGACGTGCTA` has a log fluorescence of 0.381 z-score.
For `TTAGGTTTCGCGTATCGGTTAGTGCTA`, the log fluorescence was 5.29 z-score.
The log fluorescence of `TTATGTCTCCTTATCCTTTAGTGCTAG` is reported as 0.664 z-score.
`GACGATTTCAATTTCGAGACGTGCTAG` gave a log fluorescence of 3.19 z-score.
`TTAGGTATCGATTTCGGTTAGTGCTAG` gave a log fluorescence of 9.37 z-score.
The log fluorescence of `TTAGGTTTCGAAACTGGGTTAGTGCTA` is reported as 6.66 z-score.
`TTAGGTCTCCTACAGCTTTAGTGCTAG` gave a log fluorescence of -0.237 z-score.
The log fluorescence of `GACGATTTCGGGACTGTAGACGTGCTA` is reported as 1.82 z-score.
`TTGGGACTGGGGACTGGGTTAGTGCTA` gave a log fluorescence of -0.575 z-score.
With `TTAGGTTTCGGTCTCGGTTTGTGCTAG` the log fluorescence was 10.6 z-score.

Study 2
Target: RNA binding protein fox-1 homolog 2, RRM domain, GST-SBP tag (RBFOX2, Homo sapiens, UniProt O43251-10, residues 100-194)
Method: RNA Bind-n-Seq
Form: RNA
Sample: in vitro
Tested at: 365 nM
Setting: natural RNA segment, single round, ends assumed
Reference: no-protein control
Direction: higher = stronger binding
Target sequence (chain): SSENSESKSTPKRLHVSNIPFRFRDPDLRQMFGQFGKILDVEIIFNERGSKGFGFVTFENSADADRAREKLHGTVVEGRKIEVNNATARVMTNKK
For `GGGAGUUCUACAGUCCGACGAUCAAGUAAAAUAGCUUGGAUUCAAUCAUGUGACUUUUAAAUUGGCUCAGAAAGCAAUUUUGUAAUUUCAGAGAGUGUUUUGAGCCAUGGCCACGUUGUCAUUGUGAGUCUAUUGGAAUUCUCGGGUGCCAA`, “RBNS enrichment (R)” read 0.281.
Under “RBNS enrichment (R)”, `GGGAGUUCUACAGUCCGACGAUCGGAGCAGAAGCCGGAGUGGCGGGGCACGCUGCCGCCUUCCCCAUCACGGAGGGUCCAGACUGUCCACUCGGGGGUGGAGUGAGACUGACUGCAAGCCCCACCCUCCUUGAUGGAAUUCUCGGGUGCCAA` is recorded as 1.03.
`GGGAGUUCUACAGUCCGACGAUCGGAGCUGGAUCUGACCCUGAUUGGGGAGAGCUGAGUGCUGAGCCUUGGGAGCCCCUGCCAGCCACCUGCACCUGUGGACAGUGGGUGGGGGCACUACUCCCCACUCAGAGUGGAAUUCUCGGGUGCCAA` — result for “RBNS enrichment (R)”: 0.734.
`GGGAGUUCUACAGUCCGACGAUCAGUCAUUGGCUCUAUCUGCAUUUUUCUGUCAUUCUCUUCAUUUGUUUUAAGGUGGAAAAUUUUCUUACAGUUGAUGCAAAGUAUCAACUACUUUACCCUACCUUCUCCCCUGGAAUUCUCGGGUGCCAA`: “RBNS enrichment (R)” 3.45.
`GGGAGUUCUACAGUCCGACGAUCUAUAAACACUAAGAUGGGGUGCAAGGGCCCAGCCCCAGCUCCACAGCCCCCAUAUGCACCCACCCUGUCGCUAUCUUGGAUGGCCCGCUCUGGGAGAUGUUGGGUGUUUUUGGAAUUCUCGGGUGCCAA`: “RBNS enrichment (R)” 0.338.
Under “RBNS enrichment (R)”, `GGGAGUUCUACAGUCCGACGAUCAUUGCUUGACAUCAGGAGACUUGGGGGGGAUUGUAGCAGACGUCUGGGCUUUUCCCCACCCAGAGAAUAGCCCCCUUCGAUACACAUCAGCUGGAUUUUCAAAAGCUUCAUGGAAUUCUCGGGUGCCAA` is recorded as 1.41.
`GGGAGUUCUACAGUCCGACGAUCACAGCCAUCUGGUUAUGUCUUAUUUUUUUCCUAAAAGAUAAUGUUUAUUUUUAAAAAGGAAGGAAGGAGCAAGUGAAGUUUCAUUCUGCUCCAGCGGUGGGGAAGCCGCUUGGAAUUCUCGGGUGCCAA`: “RBNS enrichment (R)” 0.257.
`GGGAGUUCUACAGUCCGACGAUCUCUUUUUCUAUUUGUAGGUCAAAGACAAGUGCCUUCUAUGGCAUGGGAAAGGGCUUUAUUCUUAUAAGAGUCUGGCCUGUCUUAACUAGAAGACGGGUAGGAAGGAUACUUGGAAUUCUCGGGUGCCAA`: “RBNS enrichment (R)” 0.256.
`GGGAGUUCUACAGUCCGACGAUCGGCUGCAGUCUCAACCAGGAAUGGCCAGAAGCCUCCACAGCUCCAUUACAGUGCUUUGGCUGGCUGAAGGUGGGAUUUGGGGACAGAAGUUACAUCAGAAUGUCAGAUGGUGGAAUUCUCGGGUGCCAA`: “RBNS enrichment (R)” 0.939.
For `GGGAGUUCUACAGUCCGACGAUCAUGUGAAAUGGUUAUUUAUACUUAUAGAAAGUUUGUGAAAUUUGCACAGUUGUCUUUCAAAGGAUAGGAUCUAUCUUUUUUGGACUUCAGAUUGUUUUAAAGAACUGUAAUGGAAUUCUCGGGUGCCAA`, “RBNS enrichment (R)” read 0.432.
`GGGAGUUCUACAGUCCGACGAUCUUCUUAGAGACUGCUUCUCCCAAACAUAACGCGUUAGCCAUGAAGGAGUCGGAGCCCUGGGUCCGAAUGGACCCGCCUGCGGUCUGCAUCAGCCUCUGGGAAACCACAGCUGGAAUUCUCGGGUGCCAA` — result for “RBNS enrichment (R)”: 0.255.
Under “RBNS enrichment (R)”, `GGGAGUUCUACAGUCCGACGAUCGCCACUGAACACCUCCACCAGCUCUUUGGGAAUUGGAUGGAAAGGCGGCCCCUGGGGGCCAGGGGUGUGCAGCUUCCCACUCACGGGAGGAGUGGCCAGGGCUCUUGGUUUGGAAUUCUCGGGUGCCAA` is recorded as 0.494.

Study 3
Target: Histone acetyltransferase KAT6A, both winged helices, GST fusion (KAT6A, Homo sapiens, UniProt Q92794, residues 1-181)
Method: protein binding microarray
Form: double-stranded DNA, one strand shown
Sample: in vitro
Tested at: not given
Setting: 8-mer, flanks averaged, mean of 2 arrays, mostly near background
Reference: not given
Direction: higher = stronger binding
Construct (chain): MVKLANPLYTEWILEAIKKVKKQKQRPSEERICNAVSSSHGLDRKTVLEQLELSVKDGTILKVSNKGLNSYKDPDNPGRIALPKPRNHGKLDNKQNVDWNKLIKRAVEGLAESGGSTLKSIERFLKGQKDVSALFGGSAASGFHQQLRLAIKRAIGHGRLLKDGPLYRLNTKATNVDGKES
The E-score of `CAACTGGA` is reported as -0.165.
The E-score of `CAGTATGG` is reported as -0.222.
With `TAAAAAAA` the E-score was -0.0757.
The E-score of `GACCAATC` is reported as -0.186.
The E-score of `CCTAGACA` is reported as -0.177.
`ATATCAGA` has an E-score of -0.0285.
`ATCGATAC` has an E-score of -0.00532.
`CCCGTATA` has an E-score of 0.226.
For `ACGATCTA`, the E-score was -0.208.
With `CGACCCTA` the E-score was -0.123.
With `AAGACGGC` the E-score was 0.16.
`CTGTACGA` has an E-score of -0.172.
`ACATGAAG` gave an E-score of 0.0161.
`CGACATTC` has an E-score of -0.0482.
With `ACTGGGCG` the E-score was -0.0267.
For `GTAAAACA`, the E-score was -0.057.
`AAACTCCA` gave an E-score of -0.107.

Study 4
Target: CREB3, bZIP domain (human)
Method: DHFR protein complementation
Sample: yeast
Setting: single substitutions, most at no-binding floor
Reference: wild-type JUN-FOS pair
Direction: higher = stronger binding
Starting sequence: JUN, bZIP domain (human); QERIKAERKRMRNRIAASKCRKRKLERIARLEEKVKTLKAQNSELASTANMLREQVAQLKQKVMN; partner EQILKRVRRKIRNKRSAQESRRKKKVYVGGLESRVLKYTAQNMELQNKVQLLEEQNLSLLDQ
`E54I` has a binding fitness of -1.54 natural log.
`L31N` has a binding fitness of -1.38 natural log.
`E33W` has a binding fitness of -1.48 natural log.
`Q41M` has a binding fitness of -1.47 natural log.
`T37F` gave a binding fitness of -1.43 natural log.
For `R53F`, the binding fitness was -1.57 natural log.
For `L31K`, the binding fitness was -1.55 natural log.
`L31C` has a binding fitness of -1.45 natural log.
`K36G` has a binding fitness of -1.45 natural log.
The binding fitness of `V35T` is reported as -1.41 natural log.
The binding fitness of `E44C` is reported as -1.16 natural log.
`E54F` has a binding fitness of -1.54 natural log.
For `A29Q`, the binding fitness was -1.41 natural log.
`L38S` has a binding fitness of -1.55 natural log.
With `N42F` the binding fitness was -1.38 natural log.
With `K39V` the binding fitness was -1.47 natural log.
`A49K` has a binding fitness of -1.44 natural log.
With `K36V` the binding fitness was -1.48 natural log.
`L45C` has a binding fitness of -1.56 natural log.
The binding fitness of `L38K` is reported as -1.53 natural log.
The binding fitness of `A57G` is reported as -1.46 natural log.
`S47L` has a binding fitness of -1.48 natural log.
The binding fitness of `V35L` is reported as -1.45 natural log.
With `E32C` the binding fitness was -1.44 natural log.
With `E32A` the binding fitness was -1.46 natural log.

Study 5
Target: Sal-like protein 4, full length isoform A (SALL4, Homo sapiens, UniProt Q9UJQ4, residues 1-1053)
Chain of UniProt Q9UJQ4 (whole entry, looked up): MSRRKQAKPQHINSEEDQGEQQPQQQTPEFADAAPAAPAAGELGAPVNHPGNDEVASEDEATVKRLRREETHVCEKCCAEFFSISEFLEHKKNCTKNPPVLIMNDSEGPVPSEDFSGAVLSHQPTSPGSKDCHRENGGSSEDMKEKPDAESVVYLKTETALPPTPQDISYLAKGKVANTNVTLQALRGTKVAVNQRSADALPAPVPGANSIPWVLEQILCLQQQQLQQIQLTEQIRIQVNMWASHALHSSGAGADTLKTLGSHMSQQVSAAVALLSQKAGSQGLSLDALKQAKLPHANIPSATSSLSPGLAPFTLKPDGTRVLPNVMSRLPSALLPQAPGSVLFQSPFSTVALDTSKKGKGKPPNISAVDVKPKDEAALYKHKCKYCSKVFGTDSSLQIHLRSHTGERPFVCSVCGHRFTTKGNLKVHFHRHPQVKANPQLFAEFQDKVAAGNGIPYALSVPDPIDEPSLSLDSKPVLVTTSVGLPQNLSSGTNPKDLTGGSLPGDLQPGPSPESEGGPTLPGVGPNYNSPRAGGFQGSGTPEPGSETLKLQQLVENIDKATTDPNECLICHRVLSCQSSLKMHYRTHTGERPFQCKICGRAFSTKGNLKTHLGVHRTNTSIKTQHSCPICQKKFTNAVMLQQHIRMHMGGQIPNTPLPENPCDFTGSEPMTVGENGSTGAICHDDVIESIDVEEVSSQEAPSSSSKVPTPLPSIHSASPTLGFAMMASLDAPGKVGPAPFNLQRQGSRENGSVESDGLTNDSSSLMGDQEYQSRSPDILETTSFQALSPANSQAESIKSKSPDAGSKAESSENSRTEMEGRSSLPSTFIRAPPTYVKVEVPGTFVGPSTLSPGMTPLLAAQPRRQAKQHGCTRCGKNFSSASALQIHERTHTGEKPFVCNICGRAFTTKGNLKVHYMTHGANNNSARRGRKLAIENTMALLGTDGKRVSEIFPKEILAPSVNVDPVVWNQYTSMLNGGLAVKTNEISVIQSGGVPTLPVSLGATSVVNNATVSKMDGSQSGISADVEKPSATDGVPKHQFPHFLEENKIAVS
Method: universal PBM
Form: double-stranded DNA, one strand shown
Sample: in vitro
Tested at: 600 nM
Setting: 8-mer, flanks averaged, mean of replicates
Direction: higher = stronger binding
`ATTCAACC` has an E-score of -0.0224.
`ACGGCTCT` has an E-score of -0.155.
`CTGGGGTC` gave an E-score of -0.266.
With `CCATCCCC` the E-score was -0.268.
With `AAGTATAG` the E-score was 0.168.
The E-score of `GCGAAGAA` is reported as 0.0366.
The E-score of `GTGCCCAC` is reported as -0.292.
For `AGCGTGCC`, the E-score was -0.226.
`GGTTTGAA` gave an E-score of 0.0903.
`AATAAGGC` gave an E-score of 0.174.
`CATCGTGA` gave an E-score of -0.149.
`AGTGCCTG` has an E-score of -0.056.
For `GTTCCCGA`, the E-score was -0.197.
The E-score of `GAGCTTTA` is reported as 0.0557.
With `GGTCGTAA` the E-score was 0.112.
With `CTGTAATC` the E-score was 0.0698.
For `ACGGCGTC`, the E-score was -0.301.
For `TGAGCCCA`, the E-score was -0.237.

For quick reference, copied from above (study 3):
The E-score of `CAACTGGA` is reported as -0.165.
The E-score of `CAGTATGG` is reported as -0.222.
With `TAAAAAAA` the E-score was -0.0757.
The E-score of `GACCAATC` is reported as -0.186.
The E-score of `CCTAGACA` is reported as -0.177.
`ATATCAGA` has an E-score of -0.0285.
`ATCGATAC` has an E-score of -0.00532.
`CCCGTATA` has an E-score of 0.226.
For `ACGATCTA`, the E-score was -0.208.
With `CGACCCTA` the E-score was -0.123.
With `AAGACGGC` the E-score was 0.16.
